# Measurements from different studies.
# Every numbered part comes from another study and shows a few of its results, in no order. Substitutions count along the parent as printed.

# Series 1
# Target: Histone acetyltransferase KAT6A, winged helix 1, GST fusion (KAT6A, Homo sapiens, UniProt Q92794, residues 1-85)
# Technique: protein binding microarray
# Molecule type: double-stranded DNA, one strand shown
# Medium: in vitro
# Concentration: not given
# Setting: 8-mer, flanks averaged, mean of 2 arrays, mostly near background
# Relative to: not given
# Reading: higher = stronger binding
# Construct (chain): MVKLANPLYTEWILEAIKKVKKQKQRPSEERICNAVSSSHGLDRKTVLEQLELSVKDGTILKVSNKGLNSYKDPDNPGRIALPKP
Oligonucleotide,E-score
CCCTGTCA,-0.196
GCTAGTAC,0.0742
CCCTATCC,-0.115
AACGTCTG,0.00494
CCGAATTA,-0.115
AAAGTAAA,-0.231
TACTGAAA,0.0523
GCGTCGCC,0.343
AGTACCTA,-0.143
TCCACGCA,0.0231
GTGGTACA,-0.127
AGTCTTAG,-0.131
ACGACACC,0.0519
TGCAGCCA,-0.152
ACATTTGG,-0.05
CACCTACC,-0.157
GCTAGGAC,0.0121
GATGGACC,-0.102
CGTGACCC,0.169
GTAAAGAA,-0.113
ATAGCCCC,0.0329
AAAAGGTA,-0.108
GTCACGAC,-0.156
ATTAACTA,-0.126
CCTTACGA,-0.027

# Series 2
# Target: ABI1, truncated, D143A, DHFR fusion (Arabidopsis thaliana)
# Technique: DHFR PCA, deep sequencing
# Medium: yeast
# Setting: methotrexate growth selection, single substitutions
# Together with: (+)-ABA 0.032 µM
# Relative to: wild-type fitted maximum
# Reading: higher = stronger binding
# Starting sequence: PYL1, truncated, DHFR fusion (Arabidopsis thaliana); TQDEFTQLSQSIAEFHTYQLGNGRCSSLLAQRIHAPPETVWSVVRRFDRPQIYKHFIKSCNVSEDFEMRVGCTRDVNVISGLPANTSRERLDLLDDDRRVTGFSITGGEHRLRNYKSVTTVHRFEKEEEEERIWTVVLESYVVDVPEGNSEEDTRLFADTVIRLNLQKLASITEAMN; partner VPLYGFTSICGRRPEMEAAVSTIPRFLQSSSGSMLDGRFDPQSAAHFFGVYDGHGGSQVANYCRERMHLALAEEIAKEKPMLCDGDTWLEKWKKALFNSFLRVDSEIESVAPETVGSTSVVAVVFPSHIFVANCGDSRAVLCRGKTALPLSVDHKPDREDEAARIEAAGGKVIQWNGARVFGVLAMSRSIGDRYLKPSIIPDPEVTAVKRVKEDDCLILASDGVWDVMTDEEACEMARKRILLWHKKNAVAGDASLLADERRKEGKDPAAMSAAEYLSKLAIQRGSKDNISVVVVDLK
Variant,relative binding score [%]
M176V,6.9
V143R,-0.643
K168T,3.88
D48V,-2.17
T135Y,-3.06
L164C,14.1
A84R,2.37
L138V,-2.72
E14H,-9.33
S59L,1.05
T106I,77.1
S171C,12.1
R74H,6.38
F5D,-3.09
G107P,-0.527
E4C,9.68

# Series 3
# Target: Interferon regulatory factor 7, full length, phosphomimetic (IRF7, Homo sapiens, UniProt Q92985, residues 1-503, S101K/S471D/S472D/S475D/S476D/S477D/S483D/S484D/S487D)
# Technique: protein-binding microarray
# Molecule type: double-stranded DNA, one strand shown
# Medium: in vitro
# Concentration: 250 nM
# Setting: 60-bp whole probe
# Together with: salmon DNA 0.4 mg/ml
# Relative to: random background probes
# Reading: higher = stronger binding
# All sequences stand within: GCCTAGCAC … GTCTTGATTCGCTTGACGCTGCTG
# Construct (chain): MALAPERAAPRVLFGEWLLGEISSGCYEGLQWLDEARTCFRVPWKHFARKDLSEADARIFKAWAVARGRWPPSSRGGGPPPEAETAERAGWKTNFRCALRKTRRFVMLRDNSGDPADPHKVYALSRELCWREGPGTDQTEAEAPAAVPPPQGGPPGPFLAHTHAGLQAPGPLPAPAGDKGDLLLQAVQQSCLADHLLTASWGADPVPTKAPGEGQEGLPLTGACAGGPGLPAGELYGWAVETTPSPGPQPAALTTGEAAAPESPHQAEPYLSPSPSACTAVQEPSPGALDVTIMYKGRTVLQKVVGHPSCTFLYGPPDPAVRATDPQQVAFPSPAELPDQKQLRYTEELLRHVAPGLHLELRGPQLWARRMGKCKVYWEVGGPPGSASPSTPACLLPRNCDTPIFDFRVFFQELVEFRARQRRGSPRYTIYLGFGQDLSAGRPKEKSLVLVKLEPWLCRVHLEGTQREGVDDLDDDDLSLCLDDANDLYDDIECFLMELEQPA
Oligonucleotide,log fluorescence [z-score]
TTAGATTCCAGTTTCGACTAGTGCTAG,6.31
TTAGGTTCCCTATTCCTTTAGTGCTAG,2.24
TGGGAGCTCAGGAATCCCACGTGCTAG,-0.563
TCACATTCTGAATTCGAACTGTGCTAG,1.28
TTAGATATCGGTATCGATTAGTGCTAG,1.39
GACGGTTTCGCTCTCGGGACGTGCTAG,6.17
CTGATCCTTCATTTGAAAGAGTGCTAG,0.782
GGCCATTTCCCTTGCCGCGCGTGCTAG,0.643
TCACCCCTCAGATCTGCCACTGTGCTA,-0.191
GACGATATCGGGTATCGAGACGTGCTA,-0.205
GACGATTTCATTCTCGAGACGTGCTAG,1
GACGGTTTCGGGACTCGGGACGTGCTA,5.36
GACGGTTTCGACTTTCGGGTCGTGCTA,11.2
TCAGTCTTCCCCATCTTACTGTGCTAG,1.41
TCAGCTACCTCTCTTAGACTGTGCTAG,-0.748
TTAGATCTCAGACTAGATTAGTGCTAG,-0.154
AAGATTCTAGCCTATAGAAGCGTGCTA,0.326
TAAGGTTTCGACACTGGGTTAGTGCTA,3.85
CTCACCATCATCCTCACTGCGTGCTAG,0.364
GATGGACTGCTTCTCCTGACGTGCTAG,-0.0941
TTCGATCTCAGACTGGATTAGTGCTAG,0.244
GACGGACTGCTACTGATGACGTGCTAG,-0.799
TCATTTCCATTTTCTAAAACTGTGCTA,3.99

# Series 4
# Target: Prothrombin, mature alpha-thrombin (F2, Homo sapiens, UniProt P00734)
# Technique: aptamer microarray, sandwich
# Molecule type: DNA with 2'F-ANA
# Medium: in vitro
# Concentration: 200 nM
# Setting: whole 15-mer aptamer, many near background
# Together with: Cy3 exosite-II aptamer, 400 nM
# Reading: higher = stronger binding
# Oligonucleotide: GGTTGGTGTGGTTGG
Modification,mean fluorescence intensity
2'F-ANA at 1 5 6 7 9 10 13 14,44.7 a.u.
2'F-ANA at 2 3 12 14,451 a.u.
2'F-ANA at 2 7 8 9 10 11 12 13 14,83.4 a.u.
2'F-ANA at 1 3 4 5 7 8 9 11 12 13 14 15,48.8 a.u.
2'F-ANA at 1 3 4 5 6 10 12 14,46.6 a.u.
2'F-ANA at 1 3 10 11 12 13,121 a.u.
2'F-ANA at 1 3 4 6 7 9 10 11 12 14 15,55.8 a.u.
2'F-ANA at 1 3 5 6 7 8 9 10 11,47.6 a.u.
2'F-ANA at 1 2 5 8 9 10 11 12,49.1 a.u.
2'F-ANA at 1 2 3 5 9 10 11,45.7 a.u.
2'F-ANA at 1 5 7 9 10 11 12 14 15,192 a.u.
2'F-ANA at 1 3 7 11 12 13 14 15,226 a.u.
2'F-ANA at 1 2 3 5 6 10 11 12 13 14 15,199 a.u.
2'F-ANA at 3 5 9 12,292 a.u.
2'F-ANA at 1 3 4 5 6 9 10 12 15,53.4 a.u.
2'F-ANA at 2 3 4 7 12,1210 a.u.
2'F-ANA at 7 8 9 12 13,747 a.u.
2'F-ANA at 2 3 5 6 8 9 11 14 15,55.3 a.u.
2'F-ANA at 1 5 10 11 12 15,49.7 a.u.
2'F-ANA at 1 2 5 9 10 11 12 13,57.4 a.u.
2'F-ANA at 1 4 6 8 9 12 14,57.2 a.u.

# Series 5
# Target: RNA binding protein fox-1 homolog 2, RRM domain, GST-SBP tag (RBFOX2, Homo sapiens, UniProt O43251-10, residues 100-194)
# Technique: RNA Bind-n-Seq
# Molecule type: RNA
# Medium: in vitro
# Concentration: 365 nM
# Setting: natural RNA segment, single round, ends assumed
# Relative to: no-protein control
# Reading: higher = stronger binding
# All sequences stand within: GGGAGUUCUACAGUCCGACGAUC … UGGAAUUCUCGGGUGCCAA
# Construct (chain): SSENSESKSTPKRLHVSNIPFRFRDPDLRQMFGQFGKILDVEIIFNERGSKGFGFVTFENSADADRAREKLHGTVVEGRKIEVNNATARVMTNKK
Oligonucleotide,RBNS enrichment (R)
CUCUCCAUUCCUGGUUCAGGGUUAGGGUCCUGAGAGGCUGGCUCGGCACUACUCCGAGGGUCCCUCACUCUACAAGGUCUUUGUUAGUAUUAAAGGCCACUGUUUUGCAU,0.487
CCAGGCAGAGUUUUAGUAUGACAUUGUGUGAUGAAUGCAAAUCAACACACAGAAUAAAUGGCUCUUUCUCACCUUAUGUCAUGAAUGUUUUGGACAUCAAGCAUCCUAAU,1.33
GUUUCCUCACGCUGGUUUCUCUGGUUUGGGGCUCCACGGCCAAGUCCUUGUUGGCUGAGGGCAGGACCUUGUAACCCUCUUCCAUGCACAACUUGCACACCCCCUGUUCC,1.32
CAAUAUCUUGAGUUUGUAGCUUAGAAUUGGGAAGGCACUGAACAUCUGGAAGACAAGGUCAUUUCAUCUUGAGAUCAUGGUGAAAUAUUUUGGAUAUAUAAAUUCCUUAA,0.321
UUAGCAUAAACUAAUUCCUUUUGAGUUUGUAAAUCAUUUGUACCCAGAAUGUAUUAUAAUAUAUUGCUAUUAGGUUACUCUACUAACUGGAGCCAUGCCGACCUCUACAA,0.375
UCUGGCAGUAUUUUAAACAUGCUAGCAUUUCAGGGGUAUUCUACUUAAAAACAAAACAAAACUGGGAUCAGAUGGCAUCCUAGUUUUGGUACCGGGGCAUUGCCAGUCAC,0.221
AAGAGUUAGACGUUUGUUAUCAUGCCCCAAAAUAGUUUGAGGUAACAUUUUUGGAGGUAGCUUCGUGCAUCAUAAACAACUUUCGUGCUCGUGUCUGACUCGAGCGGUAU,0.675
AUCCUGGGCUCUCAUCUGAACCCCUCUUCUACCCACUUCUACUUGGAGGUGUCCUGUCUUUUUAAAAUCAGUGCCAAGUGUGUCAGCAGGGGGCAUGAACAAAAACCAGU,0.395
UCUUAACUUCCCAAGCUGCAGAAUAGCAACCUUUUAAGCUUUCACACACUUUCCUCUUAAGAUCCGUCAUCUCCAGGACAUAAGUCCCCAGCUCCCAACUGUGGCCAUGG,0.678
CUCUUUGGGACCCUGCUUAGAGUCAAGGGUACCAAUGAGAAGGGCUAGGACAAGGAAUGCUUCUUGAUUCCAUAGCUCUGACUAUAAUGACCCAGGAGAGAGGUGCCCCU,0.437
UUUCUACUGAACAUCCUAGUUUUAAACAGAAGAAAAACUGUAAUCCUGGGGUUGGUAUGUAGGAGGUCUAUCCUGCAGAAUAAGUUGAUACAUUAGUACCUGAUUUCAUA,0.31
GAAAGUGUGUGUCUGCUGGGGCAGCUGUGCCCCUGAAUCAUGGGCACGGAGGGCCGCCCGCCACGCCCCGCGCUCAACUGCUCCCGUGGAAGAUUAAAGGGCUGAAUCAU,0.361

# For quick reference, copied from above (series 4):
Modification,mean fluorescence intensity
2'F-ANA at 1 5 7 9 10 11 12 14 15,192 a.u.
2'F-ANA at 3 5 9 12,292 a.u.
2'F-ANA at 1 3 4 5 6 10 12 14,46.6 a.u.
2'F-ANA at 7 8 9 12 13,747 a.u.
2'F-ANA at 1 4 6 8 9 12 14,57.2 a.u.
2'F-ANA at 1 2 5 8 9 10 11 12,49.1 a.u.
2'F-ANA at 1 3 4 6 7 9 10 11 12 14 15,55.8 a.u.
2'F-ANA at 1 2 3 5 9 10 11,45.7 a.u.
2'F-ANA at 1 5 6 7 9 10 13 14,44.7 a.u.
2'F-ANA at 1 2 3 5 6 10 11 12 13 14 15,199 a.u.
2'F-ANA at 1 3 5 6 7 8 9 10 11,47.6 a.u.
2'F-ANA at 2 7 8 9 10 11 12 13 14,83.4 a.u.
2'F-ANA at 1 3 10 11 12 13,121 a.u.
2'F-ANA at 1 3 7 11 12 13 14 15,226 a.u.
2'F-ANA at 2 3 5 6 8 9 11 14 15,55.3 a.u.
2'F-ANA at 1 3 4 5 6 9 10 12 15,53.4 a.u.
